Results gathered from unrelated publications.
Every numbered part comes from another study and shows a few of its results, in no order.

Sample 1
Target: Interferon regulatory factor 7, full length, phosphomimetic (IRF7, Homo sapiens, UniProt Q92985, residues 1-503, S471D/S472D/S475D/S476D/S477D/S483D/S484D/S487D)
Technique: protein-binding microarray
Molecule type: double-stranded DNA, one strand shown
Medium: in vitro
Tested at: 2200 nM top
Setting: 60-bp whole probe
Added: salmon DNA 0.4 mg/ml
Baseline: random background probes
Direction: higher = stronger binding
Endpoint: fitted relative affinity
Constant ends, left off below: GCCTAGCAC … GTCTTGATTCGCTTGACGCTGCTG
Construct (chain): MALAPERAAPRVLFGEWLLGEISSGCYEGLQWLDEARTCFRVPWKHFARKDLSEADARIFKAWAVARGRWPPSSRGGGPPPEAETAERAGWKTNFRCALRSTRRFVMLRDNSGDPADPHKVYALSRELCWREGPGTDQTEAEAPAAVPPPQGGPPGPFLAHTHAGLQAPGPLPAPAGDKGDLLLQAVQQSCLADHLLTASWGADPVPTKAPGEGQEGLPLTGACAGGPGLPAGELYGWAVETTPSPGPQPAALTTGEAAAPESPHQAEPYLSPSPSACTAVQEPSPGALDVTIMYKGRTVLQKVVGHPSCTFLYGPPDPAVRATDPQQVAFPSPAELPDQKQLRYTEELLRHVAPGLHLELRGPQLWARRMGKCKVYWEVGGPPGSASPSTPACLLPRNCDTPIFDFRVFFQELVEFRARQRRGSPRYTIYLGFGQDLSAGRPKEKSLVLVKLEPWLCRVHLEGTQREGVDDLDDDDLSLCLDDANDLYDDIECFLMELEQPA
TTAGGTTTCCTAATCCTTTAGTGCTAG: 1.32 z-score
TTTCTTTTTGCACTCTCTACGTGCTAG: 9.54 z-score
GACGGTCTACTTCTCCTGACGTGCTAG: 1.03 z-score
TCAATTCCAGGGTTTTATACTGTGCTA: 0.408 z-score
GACGGTATCGGTGTCGGGACGTGCTAG: -0.397 z-score
GACGATTTCAGACTGGAGCCGTGCTAG: 0.206 z-score
TTAGGTGTCCTTCTCCTTTAGTGCTAG: 0.962 z-score

Sample 2
Target: RING finger protein unkempt homolog, zinc fingers 1-6, GST-SBP tag (UNK, Homo sapiens, UniProt Q9C0B0, residues 30-357)
Chain of UniProt Q9C0B0 (30-357, looked up): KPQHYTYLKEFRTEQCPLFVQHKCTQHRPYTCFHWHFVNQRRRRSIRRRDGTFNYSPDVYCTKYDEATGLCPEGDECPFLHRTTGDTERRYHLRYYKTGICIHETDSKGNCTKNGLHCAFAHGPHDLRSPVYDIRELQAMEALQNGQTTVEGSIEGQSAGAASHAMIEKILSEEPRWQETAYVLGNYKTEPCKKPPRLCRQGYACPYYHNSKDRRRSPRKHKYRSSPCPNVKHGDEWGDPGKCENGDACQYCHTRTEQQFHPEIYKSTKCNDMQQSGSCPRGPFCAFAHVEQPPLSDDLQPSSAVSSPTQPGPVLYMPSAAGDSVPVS
Technique: RNA Bind-n-Seq
Molecule type: RNA
Medium: in vitro
Tested at: not given
Setting: RNA with constant flanks, human and mouse sites, ends assumed
Baseline: input RNA pool
Direction: higher = stronger binding
Endpoint: bound/input enrichment
Constant ends, left off below: GGGAGUUCUACAGUCCGACGAUC … CAACAGAGGAUUGAGCAUCA
UGUGCAUUAUUAAAAUGUUCUAAGUGAAGCUAAUUGUCAAGUUUAUUAAAGAGGAUUGCUUUGUGCCCCCUACCUAGUGUGUAAAAUAAAGUCAGAUCAUUACAAUCUUAACUGUGGUAC: 4.79 ratio
ACAGACUUACUAAGAUUAUUUGAAUAUGGAGGUUUUCCACCAGAAGCCAACUAUCUUUUCUUAGGAGAUUAUGUGGACAGAGGAAAGCAGUCUUUGGAAACCAUCUGUUUGCUAUUGGCU: 0.667 ratio
GCUUUUUAUCCUCAGUACCUCAGGCCCCCAUGUACUUGGUGGGACAGCAAACCCUUUCCUUGGUUUUGGCCUCCAGACUAAAGGGACAGGUCCCACCAACAGGUGCUCAGAGCCACCAAG: 0.118 ratio
UCAGUCUAGCUUUUAAUUAAGUUAUUUUGUAUAGCUUAAUUUGUAAAACAUUUUAUGUUUUUUAGAUGCUUUAUUAAAUACAUGGCCAAACCAAAUAACAUCUUUCAGUAAUUAUAGAAU: 9.15 ratio
GUACCCCAUCGCGGUGCUCAUAGACGAACUCCGCAAUGAGGACGUUCAGCUUCGCCUCAACAGCAUCAAGAAGCUGUCCACCAUCGCCUUGGCCCUUGGGGUUGAAAGGACCCGAAGUGA: 0.0614 ratio

Sample 3
Target: Sal-like protein 4, full length isoform A (SALL4, Homo sapiens, UniProt Q9UJQ4, residues 1-1053)
Chain of UniProt Q9UJQ4 (whole entry, looked up): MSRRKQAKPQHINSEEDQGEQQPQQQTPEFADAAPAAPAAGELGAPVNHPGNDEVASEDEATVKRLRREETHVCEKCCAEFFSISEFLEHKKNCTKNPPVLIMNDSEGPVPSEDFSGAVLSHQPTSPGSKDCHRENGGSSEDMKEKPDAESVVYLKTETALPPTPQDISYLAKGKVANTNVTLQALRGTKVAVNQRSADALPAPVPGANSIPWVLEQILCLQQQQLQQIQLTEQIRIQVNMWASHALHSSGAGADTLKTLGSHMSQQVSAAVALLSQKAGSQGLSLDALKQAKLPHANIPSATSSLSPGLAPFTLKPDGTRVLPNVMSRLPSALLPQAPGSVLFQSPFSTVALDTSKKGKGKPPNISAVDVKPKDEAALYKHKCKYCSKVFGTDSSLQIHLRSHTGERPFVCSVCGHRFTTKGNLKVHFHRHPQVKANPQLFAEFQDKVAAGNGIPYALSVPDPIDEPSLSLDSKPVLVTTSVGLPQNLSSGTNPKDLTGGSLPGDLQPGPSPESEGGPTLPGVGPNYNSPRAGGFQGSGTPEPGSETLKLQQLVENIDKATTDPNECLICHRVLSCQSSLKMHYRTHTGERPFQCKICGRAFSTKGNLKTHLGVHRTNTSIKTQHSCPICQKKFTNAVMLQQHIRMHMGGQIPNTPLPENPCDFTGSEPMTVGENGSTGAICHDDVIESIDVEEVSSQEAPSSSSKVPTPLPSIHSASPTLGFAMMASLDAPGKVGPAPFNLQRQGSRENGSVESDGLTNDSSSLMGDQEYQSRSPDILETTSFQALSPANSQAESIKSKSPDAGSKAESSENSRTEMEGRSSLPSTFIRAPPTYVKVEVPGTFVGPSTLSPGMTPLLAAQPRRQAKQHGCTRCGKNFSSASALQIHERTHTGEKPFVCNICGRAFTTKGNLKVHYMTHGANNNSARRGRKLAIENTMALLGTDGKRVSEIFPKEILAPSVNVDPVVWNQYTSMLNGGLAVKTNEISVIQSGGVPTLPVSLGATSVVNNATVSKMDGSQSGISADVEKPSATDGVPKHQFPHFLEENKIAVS
Technique: universal PBM
Molecule type: double-stranded DNA, one strand shown
Medium: in vitro
Tested at: 600 nM
Setting: 8-mer, flanks averaged, mean of replicates
Direction: higher = stronger binding
Endpoint: E-score
ATGTTAAC: 0.261
GGTCGCAA: -0.0701
GTACAGAA: 0.0114
TCGGATCA: 0.133
AACTCTAA: 0.19
AGCCCTGA: -0.164
AGTTTCAC: 0.143
GGGCCAGA: -0.375

Further values, each from its own experiment
PhoQ, residues 284 288 289 292 302 303 SCCLKL — fold induction (PhoP, residues 12 14 15 18 19 HEGLL (Escherichia coli, UniProt P23836); Sort-seq, refers to: YFP reporter; E. coli; PhoQ-PhoP variant library, added: 10 µM Mg2+; baseline: high Mg2+ state, higher = stronger signaling): 7.07

A few entries again (sample 3):
GGTCGCAA: -0.0701
AACTCTAA: 0.19
